Measured values of several laboratories.
Lines come from different studies, so protocols differ. Values joined by “and” are separate records of one study, mostly repeats; a detail may differ. ± gives the spread as reported.
DRD2: D(2) dopamine receptor (DRD2, Homo sapiens, UniProt P14416)
XIAP BIR3: E3 ubiquitin-protein ligase XIAP, BIR3 (XIAP, Homo sapiens, UniProt P98170)
Na(+)/H(+) exchange regulatory cofactor NHE-RF2 PDZ domain 2: Na(+)/H(+) exchange regulatory cofactor NHE-RF2, PDZ domain 2 (Homo sapiens, UniProt Q15599)
bglA: bglA (Thermotoga maritima, UniProt Q08638)
EPHA2: Ephrin type-A receptor 2 (EPHA2, Homo sapiens, UniProt P29317)
CFTR: Cystic fibrosis transmembrane conductance regulator (CFTR, Homo sapiens, UniProt P13569)
Tspo: Translocator protein (Tspo, Rattus norvegicus, UniProt P16257)
Calpain-2 catalytic subunit: Calpain-2 catalytic subunit (Homo sapiens, UniProt P17655)
Astl: Astacin-like metalloendopeptidase (Astl, Mus musculus, UniProt Q6HA09)

CN(C)[C@@H](CNC(=O)NC[C@H]1Cc2ccccc21)Cc1ccccc1 — Ki (DRD2; ligand displacement, radioligand): > 10 µM
CN[C@@H](C)C(=O)N[C@H]1CN(C(=O)Cc2ccccc2)CC[C@H]2CC[C@@H](C(=O)NCc3cccc(C(F)(F)F)c3)N2C1=O — Ki (XIAP BIR3; ligand displacement, FP): 3.75 µM
CSCC[C@H](NC(=O)[C@@H](N)CS)C(=O)N[C@@H](CCC(N)=O)C(=O)N[C@H](C(=O)N[C@@H](CO)C(=O)N[C@@H](CCCCN)C(=O)N[C@@H](CC(C)C)C(=O)O)[C@@H](C)O — Ki (Na(+)/H(+) exchange regulatory cofactor NHE-RF2 PDZ domain 2; binding to PDZ2 domain, inhibitor, fluorescence polarization): 10 ± 0.6 µM
C[C@@H]1Cc2cc(C(=O)C3=C(O)C(=O)N(CCc4ccccc4)[C@@H]3c3cccc(Br)c3)ccc2O1 — Ki (Fatty acid-binding protein 5 (FABP5, Homo sapiens, UniProt Q01469); ligand displacement, fluorescence): 3.13 µM
OC[C@@H]1[C@@H](O)[C@H](O)[C@@H](O)c2nccn21 — Ki (bglA; enzyme activity, inhibitor; pH 6.8): 0.026 µM
CC[C@H](C)[C@H](NC(=O)[C@@H](NC(=O)[C@H](CO)NC(=O)[C@@H](NC(=O)[C@H](CCC(N)=O)NC(=O)[C@H](Cc1c[nH]c2ccccc12)NC(=O)[C@@H](N)CS)[C@@H](C)O)[C@@H](C)CC)C(=O)O — Ki (Na(+)/H(+) exchange regulatory cofactor NHE-RF2 PDZ domain 2; binding to PDZ2 domain, inhibitor, fluorescence polarization): 246 ± 186 µM
CNC(=O)C1CCN(c2cc(C)c(F)cc2NC(=O)c2ccc(-c3c(C)ccc4[nH]ncc34)c(C)c2)CC1 — Ki (EPHA2; enzyme activity, inhibitor): 0.0073 µM and < 0.01 µM
C/C=C/C[C@@H](C)[C@@H](O)[C@H]1C(=O)N[C@@H](CC)C(=O)N(C)C(Cc2ccc(C(=O)NCCOCCNC(=O)CC[P+](c3ccccc3)(c3ccccc3)c3ccccc3)cc2)C(=O)N(C)[C@@H](CC(C)C)C(=O)N[C@@H](C(C)C)C(=O)N(C)[C@@H](CC(C)C)C(=O)N[C@@H](C)C(=O)N[C@H](C)C(=O)N(C)[C@@H](CC(C)C)C(=O)N(C)[C@@H](CC(C)C)C(=O)N(C)[C@@H](C(C)C)C(=O)N1C (stereo partly shown) — Ki (Peptidyl-prolyl cis-trans isomerase F, mitochondrial (Ppif, Rattus norvegicus, UniProt P29117); PPIase activity, inhibitor; pH 7.5, 15 °C): 0.005 µM
Cc1ccc(CC(=O)N/N=C/c2cc(Br)c(O)c(Br)c2O)cc1 — Ki (CFTR; chloride current, inhibitor, short-circuit current; FRT; basolateral membrane permeabilized): 10 µM
CNC(=O)C1CCN(c2cc(C)c(F)cc2NC(=O)c2ccc(-c3cc(O)ccc3C)c(C)c2)CC1 — Ki (Ephrin type-A receptor 7 (EPHA7, Homo sapiens, UniProt Q15375); binding, LanthaScreen kinase binding): > 1 µM
CCCCCCCC[C@H]1N[C@H](CO)[C@@H](O)[C@H](O)[C@H]1O — Ki (bglA; competitive inhibitor; together with: p-nitrophenyl glucopyranoside): 29 ± 3 µM
CC(C)C[C@@H]1NC(=O)[C@H](C)NC(=O)[C@H](CC2CCN(C(=N)N)CC2)NC(=O)[C@H](CO)NC(=O)[C@H](CCCNC(=N)N)NC(=O)[C@H](CCCCN)NC(=O)[C@@H]2CCCN2C(=O)[C@@H](N)CSSC[C@@H](C(=O)O)NC(=O)[C@H](Cc2ccccc2)NC1=O — Ki (Plasma kallikrein (KLKB1, Homo sapiens, UniProt P03952); enzyme activity, inhibitor, absorbance; pH 7.4): 0.022 µM
CCOC(=O)c1nn(-c2ccccc2)cc1CN(C)[C@@H]1CCSC1 — Ki (DRD2; ligand displacement, radioligand): > 10 µM
CCCCCCCCNC(=S)N1[C@H](CCC)[C@H](O)[C@@H](O)[C@H](O)[C@H]1CO — Ki (bglA; competitive inhibitor; together with: p-nitrophenyl glucopyranoside): > 2000 µM
CN[C@@H](C)C(=O)N[C@H]1CN(C(=O)Cc2ccccc2)CC[C@H]2CC[C@@H](C(=O)NCc3ccc(C(C)C)cc3)N2C1=O — Ki (XIAP BIR3; ligand displacement, FP): 38 µM
CC(Oc1cc(-c2ccccc2)nc2cccnc12)C(=O)N(C)c1ccccc1 (stereo not shown) — Ki (Tspo; binding, radioligand displacement; rat brain homogenate): 0.0014 ± 0.0005 µM
CNC(=O)c1cc(C)ccc1NC(=O)c1ccc(-c2cc(O)ccc2C)c(C)c1 — Ki (EPHA2; enzyme activity, inhibitor): 0.0225 µM
CCC(NC(=O)C(CC(C)C)NC(=O)CCc1ccncc1)C(=O)C(=O)NCc1cc(OC)cc(OC)c1 (stereo not shown) — Ki (Calpain-2 catalytic subunit; enzyme activity, inhibitor, fluorescence): 0.062 µM
CC(C)(O)c1ccc(N2Cc3c(ccnc3-c3ccc(F)cc3OCC(F)(F)F)C2=O)cc1 — Ki (Ceramide glucosyltransferase (UGCG, Homo sapiens, UniProt Q16739); noncompetitive inhibitor; together with: UDP-glucose): 0.0164 ± 0.0017 µM
CCC[C@@H]1[C@H](O)[C@@H](O)[C@H](O)[C@@H](CO)N1C(=S)NCc1ccc(C(F)(F)F)cc1 — Ki (bglA; competitive inhibitor; together with: p-nitrophenyl glucopyranoside): > 2000 µM
CC(C)=CCCC(C)=CCc1cc(-c2coc3cc(OC4OC(C(=O)O)C(O)C(O)C4O)ccc3c2=O)ccc1O (stereo not shown) — substrate inhibition Ki (glucuronidation, substrate; rat liver microsomes): 8.82 ± 1.91 µM
CC[C@H](C)[C@H](NC(C)=O)C(=O)N1CCC[C@H]1C(=O)N1CCC[C@H]1C(=O)N[C@@H](CCCCN)C(=O)N[C@@H](Cc1ccc(O)cc1)C(=O)N[C@@H](CCCNC(=N)N)C(=O)N[C@@H](CCC(=O)O)C(=O)N[C@@H](CC(C)C)C(=O)N[C@@H](CC(C)C)C(=O)N[C@@H](C)C(N)=O — Ki (Calpain-1 catalytic subunit (CAPN1, Homo sapiens, UniProt P07384); enzyme activity, inhibitor, fluorescence; pH 7.5): > 100 µM
C#CCOC(=O)[C@@]1(C)C=C(C(=O)OC(C)(C)C)C(=O)CC1 — Ki (Mitogen-activated protein kinase 1 (MAPK1, Homo sapiens, UniProt P28482); ligand displacement, FP): 3.8 µM
CCC(NC(=O)C(CC(C)C)NC(=O)NCc1ccc(C#N)cc1)C(=O)C(=O)NCc1cc(OC)cc(OC)c1 (stereo not shown) — Ki (Calpain-2 catalytic subunit; enzyme activity, inhibitor, fluorescence): 0.137 µM
COc1cc(C(=O)c2[nH]c(N)nc2-c2cccs2)cc(OC)c1OC — Ki (tubulin, goat; colchicine binding, inhibitor; 37 °C, together with: colchicine 10 µM): 1.1 ± 0.13 µM
CCCCNC(=S)N1[C@H](CCC)[C@H](O)[C@@H](O)[C@H](O)[C@H]1CO — Ki (Glucoamylase (GLAA, Aspergillus niger, UniProt P69328); enzyme activity, competitive inhibitor; optimal pH, together with: p-nitrophenyl glycopyranoside): > 2000 µM
CCC(NC(=O)C(CC(C)C)NC(=O)CCc1ccccc1)C(=O)C(=O)NCc1cc(OC)cc(OC)c1 (stereo not shown) — Ki (Calpain-2 catalytic subunit; enzyme activity, inhibitor, fluorescence): 0.056 µM
O=C(CN(Cc1cccc(C(=O)O)c1)Cc1cccc(C(=O)O)c1)NO — Ki (Astl; enzyme activity, inhibitor, fluorogenic; pH 7.4, 37 °C, apparent Ki, Morrison equation, together with: 25 µM substrate): 2.16 ± 0.02 µM
N=C(N)NCCC[C@@H]1NC(=O)[C@H](CCCCNC(=O)CNC(=O)CNC(=O)CNC(=O)CC[C@H](NC(=O)CNC(=O)CNC(=O)CNC(=O)CN2CCN(CC(=O)O)CCN(CC(=O)O)CCN(CC(=O)O)CC2)C(=O)NCC(=O)NCC(=O)NCC(=O)NCCCC[C@@H]2NC(=O)[C@@H](Cc3ccccc3)NC(=O)[C@H](CC(=O)O)NC(=O)CNC(=O)[C@H](CCCNC(=N)N)NC2=O)NC(=O)[C@@H](Cc2ccccc2)NC(=O)[C@H](CC(=O)O)NC(=O)CNC1=O [indium-111 labelled] — tissue uptake (female athymic nu/nu mice, brain; intravenous, 4 h): 0.07 %ID/g
N=C(N)Nc1nc2cc(C(F)(F)F)ccc2[nH]1 — Ki (Dihydrofolate reductase (DHFR, Homo sapiens, UniProt P00374); inhibitor): 2.12 µM
CC(Oc1cc(-c2ccccc2)nc2cnccc12)C(=O)N(C)c1ccccc1 (stereo not shown) — Ki (Tspo; binding, radioligand displacement; rat brain homogenate): 0.0003 ± 0.0002 µM
CCC[C@@H]1[C@H](O)[C@@H](O)[C@H](O)[C@@H](CO)N1C(=S)NCc1ccc(OC)cc1 — Ki (bglA; competitive inhibitor; together with: p-nitrophenyl glucopyranoside): > 2000 µM
CCCc1nc2ccc(N(Cc3ccco3)C(=O)c3ccccc3)cc2c(=O)n1Cc1ccc(-c2ccccc2-c2nnn[nH]2)cc1 — Ki (Type-1 angiotensin II receptor (AGTR1, Homo sapiens, UniProt P30556); ligand displacement, radioligand): 0.0037 µM
CCC(NC(=O)C(CC(C)C)NC(=O)Nc1ccncc1)C(=O)C(=O)NCc1cc(OC)cc(OC)c1 (stereo not shown) — Ki (Calpain-2 catalytic subunit; enzyme activity, inhibitor, fluorescence): 0.139 µM
CNC(=O)C1CCN(c2ccccc2NC(=O)c2ccc(-c3cc(O)ccc3C)c(C)c2)CC1 — Ki (EPHA2; enzyme activity, inhibitor): 0.0006 µM
CCOC(=O)C(NC(=O)c1oc(=O)c2ccccc2c1-c1ccc(C)cc1)C(=O)OCC — Ki (CFTR; concentration not given): ~7 µM
[N-]=[N+]=N[C@H]1C[C@H](n2cnc3c(N)ncnc32)O[C@@H]1COP(=O)(O)OP(=O)(O)OP(=O)(O)O — Ki (Telomerase reverse transcriptase (TERT, Homo sapiens, UniProt O14746); enzyme activity, inhibitor): 4.8 µM
N=C(N)NCCCc1c[nH]cn1 — Ki (Histamine H1 receptor (HRH1, Homo sapiens, UniProt P35367); cell-free assay): > 100 µM
CCC[C@@H]1[C@H](O)[C@@H](O)[C@H](O)[C@@H](CO)N1C(=S)NCCc1ccccc1 — Ki (bglA; competitive inhibitor; together with: p-nitrophenyl glucopyranoside): > 2000 µM
N#Cc1ccc(CN(CCC(=O)NO)Cc2ccc(C#N)cc2)cc1 — Ki (Astl; enzyme activity, inhibitor, fluorogenic; pH 7.4, 37 °C, apparent Ki, Morrison equation, together with: 25 µM substrate): 1.24 ± 0.37 µM
CC(=O)c1ccc(NC(=O)Cn2c(C)cc(=O)n3nc(-c4ccc(Cl)cc4)nc23)cc1 — Ki (Cannabinoid receptor 1 (CNR1, Homo sapiens, UniProt P21554); binding): no binding
[64Cu+2].c1ccc(CNCc2ccc(CN3CCCN4CCNCCCN(CC4)CC3)cc2)nc1 — tissue uptake (CXCR4; NOD/SCID mouse, U87 and U87-stb-CXCR4 xenografts, bladder; iv, 90 min, ex vivo): 4.14 ± 4.78 %ID/g
O=C(CCN(Cc1ccc2c(c1)OCO2)Cc1ccc2c(c1)OCO2)NO — Ki (Astl; enzyme activity, inhibitor, fluorogenic; pH 7.4, 37 °C, apparent Ki, Morrison equation, together with: 25 µM substrate): 1.15 ± 0.07 µM

Excerpt of the above:
CN(C)[C@@H](CNC(=O)NC[C@H]1Cc2ccccc21)Cc1ccccc1 — Ki (DRD2; ligand displacement, radioligand): > 10 µM
CN[C@@H](C)C(=O)N[C@H]1CN(C(=O)Cc2ccccc2)CC[C@H]2CC[C@@H](C(=O)NCc3cccc(C(F)(F)F)c3)N2C1=O — Ki (XIAP BIR3; ligand displacement, FP): 3.75 µM
CSCC[C@H](NC(=O)[C@@H](N)CS)C(=O)N[C@@H](CCC(N)=O)C(=O)N[C@H](C(=O)N[C@@H](CO)C(=O)N[C@@H](CCCCN)C(=O)N[C@@H](CC(C)C)C(=O)O)[C@@H](C)O — Ki (Na(+)/H(+) exchange regulatory cofactor NHE-RF2 PDZ domain 2; binding to PDZ2 domain, inhibitor, fluorescence polarization): 10 ± 0.6 µM
C[C@@H]1Cc2cc(C(=O)C3=C(O)C(=O)N(CCc4ccccc4)[C@@H]3c3cccc(Br)c3)ccc2O1 — Ki (Fatty acid-binding protein 5 (FABP5, Homo sapiens, UniProt Q01469); ligand displacement, fluorescence): 3.13 µM
OC[C@@H]1[C@@H](O)[C@H](O)[C@@H](O)c2nccn21 — Ki (bglA; enzyme activity, inhibitor; pH 6.8): 0.026 µM
